{"data": "Assay results from different studies", "action": "inhibitor", "MPO": "Myeloperoxidase (MPO, Homo sapiens, UniProt P05164)", "SLC2A1": "Solute carrier family 2, facilitated glucose transporter member 1 (SLC2A1, Homo sapiens, UniProt P11166)", "MAPK3": "Mitogen-activated protein kinase 3 (MAPK3, Homo sapiens, UniProt P27361)", "RET": "Proto-oncogene tyrosine-protein kinase receptor Ret (RET, Homo sapiens, UniProt P07949)", "AAK1": "AP2-associated protein kinase 1 (AAK1, Homo sapiens, UniProt Q2M2I8)", "note": "Each line is one published result; not all experiments were run side by side.", "sequence of UniProt P11166 (whole entry, looked up)": "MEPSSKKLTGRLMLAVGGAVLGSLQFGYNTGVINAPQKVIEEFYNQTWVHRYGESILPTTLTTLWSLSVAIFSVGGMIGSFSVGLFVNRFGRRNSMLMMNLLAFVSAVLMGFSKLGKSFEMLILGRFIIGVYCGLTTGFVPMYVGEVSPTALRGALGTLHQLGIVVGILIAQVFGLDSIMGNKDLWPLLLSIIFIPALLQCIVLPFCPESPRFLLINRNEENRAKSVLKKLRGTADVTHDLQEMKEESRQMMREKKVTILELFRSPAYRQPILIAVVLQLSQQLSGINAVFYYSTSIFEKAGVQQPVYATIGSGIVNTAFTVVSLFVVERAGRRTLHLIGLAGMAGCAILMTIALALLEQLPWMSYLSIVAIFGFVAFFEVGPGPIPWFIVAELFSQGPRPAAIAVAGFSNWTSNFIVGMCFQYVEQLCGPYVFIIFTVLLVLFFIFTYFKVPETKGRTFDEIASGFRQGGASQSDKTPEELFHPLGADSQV", "sequence of UniProt P07949 (whole entry, looked up)": "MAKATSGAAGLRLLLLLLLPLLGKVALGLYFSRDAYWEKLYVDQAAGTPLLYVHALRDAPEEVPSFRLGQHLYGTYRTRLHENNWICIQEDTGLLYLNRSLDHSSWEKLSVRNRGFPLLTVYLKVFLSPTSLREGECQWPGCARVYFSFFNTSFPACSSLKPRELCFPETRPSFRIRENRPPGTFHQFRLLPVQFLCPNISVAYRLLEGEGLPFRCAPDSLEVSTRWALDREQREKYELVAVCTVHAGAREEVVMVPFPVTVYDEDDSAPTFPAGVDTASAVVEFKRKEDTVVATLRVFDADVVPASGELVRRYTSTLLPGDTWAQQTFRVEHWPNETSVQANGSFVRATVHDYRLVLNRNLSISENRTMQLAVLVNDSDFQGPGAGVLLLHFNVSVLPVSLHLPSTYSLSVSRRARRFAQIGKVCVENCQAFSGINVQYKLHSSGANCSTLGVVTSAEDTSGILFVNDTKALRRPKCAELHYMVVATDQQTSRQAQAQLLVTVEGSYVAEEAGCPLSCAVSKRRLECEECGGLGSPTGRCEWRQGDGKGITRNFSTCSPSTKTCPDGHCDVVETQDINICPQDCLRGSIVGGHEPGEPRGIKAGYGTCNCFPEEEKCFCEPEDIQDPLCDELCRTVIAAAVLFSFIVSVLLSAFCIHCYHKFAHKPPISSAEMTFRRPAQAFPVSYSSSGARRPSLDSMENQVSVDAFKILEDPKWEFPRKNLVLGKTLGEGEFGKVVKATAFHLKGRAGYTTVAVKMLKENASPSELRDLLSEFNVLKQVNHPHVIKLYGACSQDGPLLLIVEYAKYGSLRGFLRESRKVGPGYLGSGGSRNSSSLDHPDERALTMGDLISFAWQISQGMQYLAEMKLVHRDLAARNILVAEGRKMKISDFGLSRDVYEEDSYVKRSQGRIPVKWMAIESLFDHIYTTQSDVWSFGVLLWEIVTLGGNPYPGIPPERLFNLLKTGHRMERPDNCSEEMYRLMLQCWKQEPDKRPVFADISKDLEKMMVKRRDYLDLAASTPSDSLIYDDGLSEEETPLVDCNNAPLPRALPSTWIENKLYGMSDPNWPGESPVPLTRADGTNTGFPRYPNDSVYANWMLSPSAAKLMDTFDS", "sequence of UniProt P05164 (whole entry, looked up)": "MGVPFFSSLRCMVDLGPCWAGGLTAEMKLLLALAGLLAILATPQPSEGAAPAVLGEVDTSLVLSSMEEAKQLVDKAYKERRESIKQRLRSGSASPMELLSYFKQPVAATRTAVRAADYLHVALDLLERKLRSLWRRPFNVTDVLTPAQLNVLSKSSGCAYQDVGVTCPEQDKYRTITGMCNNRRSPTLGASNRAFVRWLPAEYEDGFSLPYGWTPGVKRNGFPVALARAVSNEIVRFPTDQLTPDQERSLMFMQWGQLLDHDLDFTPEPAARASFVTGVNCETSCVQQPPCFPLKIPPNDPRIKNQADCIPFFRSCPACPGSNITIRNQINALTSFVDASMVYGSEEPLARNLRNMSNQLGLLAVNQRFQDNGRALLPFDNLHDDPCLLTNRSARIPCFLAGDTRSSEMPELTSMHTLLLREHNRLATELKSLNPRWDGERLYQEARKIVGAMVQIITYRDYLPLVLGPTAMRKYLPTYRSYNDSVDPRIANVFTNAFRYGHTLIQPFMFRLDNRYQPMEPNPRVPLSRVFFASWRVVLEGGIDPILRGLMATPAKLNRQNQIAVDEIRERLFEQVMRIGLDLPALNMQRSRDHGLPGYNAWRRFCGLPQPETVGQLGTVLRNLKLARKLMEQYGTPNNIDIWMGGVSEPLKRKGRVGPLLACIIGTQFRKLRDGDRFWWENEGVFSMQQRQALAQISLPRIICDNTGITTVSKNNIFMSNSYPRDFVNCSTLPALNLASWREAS", "sequence of UniProt P27361 (whole entry, looked up)": "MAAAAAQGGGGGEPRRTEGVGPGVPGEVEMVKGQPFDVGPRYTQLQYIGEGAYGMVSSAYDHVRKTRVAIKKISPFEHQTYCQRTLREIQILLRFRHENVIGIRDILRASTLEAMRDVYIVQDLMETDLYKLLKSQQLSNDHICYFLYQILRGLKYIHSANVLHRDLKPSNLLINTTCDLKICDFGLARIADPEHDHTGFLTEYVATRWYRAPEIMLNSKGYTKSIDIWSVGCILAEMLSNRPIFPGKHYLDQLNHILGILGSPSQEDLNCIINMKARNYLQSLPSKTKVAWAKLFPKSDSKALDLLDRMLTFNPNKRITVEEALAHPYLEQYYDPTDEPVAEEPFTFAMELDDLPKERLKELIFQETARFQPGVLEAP", "sequence of UniProt Q2M2I8 (whole entry, looked up)": "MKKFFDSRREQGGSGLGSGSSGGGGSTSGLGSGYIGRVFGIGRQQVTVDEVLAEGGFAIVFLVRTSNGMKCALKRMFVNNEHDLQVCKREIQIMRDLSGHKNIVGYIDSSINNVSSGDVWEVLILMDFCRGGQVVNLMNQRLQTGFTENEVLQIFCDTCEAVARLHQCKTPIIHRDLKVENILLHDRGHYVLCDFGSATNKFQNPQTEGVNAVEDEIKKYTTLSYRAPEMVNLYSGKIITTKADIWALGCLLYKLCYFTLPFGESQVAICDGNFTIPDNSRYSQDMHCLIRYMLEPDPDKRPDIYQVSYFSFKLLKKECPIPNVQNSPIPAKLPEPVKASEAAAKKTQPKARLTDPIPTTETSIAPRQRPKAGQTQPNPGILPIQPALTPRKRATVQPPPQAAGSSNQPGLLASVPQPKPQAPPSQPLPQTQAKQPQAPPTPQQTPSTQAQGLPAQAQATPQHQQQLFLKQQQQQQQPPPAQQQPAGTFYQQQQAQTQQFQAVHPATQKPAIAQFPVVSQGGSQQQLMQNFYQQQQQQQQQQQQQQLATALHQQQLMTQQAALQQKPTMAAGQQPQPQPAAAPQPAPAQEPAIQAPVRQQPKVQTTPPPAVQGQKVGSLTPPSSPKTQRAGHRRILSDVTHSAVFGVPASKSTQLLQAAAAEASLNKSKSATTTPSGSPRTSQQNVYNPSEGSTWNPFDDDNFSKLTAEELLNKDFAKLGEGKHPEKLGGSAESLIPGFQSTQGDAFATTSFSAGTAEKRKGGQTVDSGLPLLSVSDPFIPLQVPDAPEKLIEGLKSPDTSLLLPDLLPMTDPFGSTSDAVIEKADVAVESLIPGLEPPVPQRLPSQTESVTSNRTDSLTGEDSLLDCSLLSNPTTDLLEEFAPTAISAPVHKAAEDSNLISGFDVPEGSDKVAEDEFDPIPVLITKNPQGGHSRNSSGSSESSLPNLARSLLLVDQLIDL", "sequence of UniProt P07947 (whole entry, looked up)": "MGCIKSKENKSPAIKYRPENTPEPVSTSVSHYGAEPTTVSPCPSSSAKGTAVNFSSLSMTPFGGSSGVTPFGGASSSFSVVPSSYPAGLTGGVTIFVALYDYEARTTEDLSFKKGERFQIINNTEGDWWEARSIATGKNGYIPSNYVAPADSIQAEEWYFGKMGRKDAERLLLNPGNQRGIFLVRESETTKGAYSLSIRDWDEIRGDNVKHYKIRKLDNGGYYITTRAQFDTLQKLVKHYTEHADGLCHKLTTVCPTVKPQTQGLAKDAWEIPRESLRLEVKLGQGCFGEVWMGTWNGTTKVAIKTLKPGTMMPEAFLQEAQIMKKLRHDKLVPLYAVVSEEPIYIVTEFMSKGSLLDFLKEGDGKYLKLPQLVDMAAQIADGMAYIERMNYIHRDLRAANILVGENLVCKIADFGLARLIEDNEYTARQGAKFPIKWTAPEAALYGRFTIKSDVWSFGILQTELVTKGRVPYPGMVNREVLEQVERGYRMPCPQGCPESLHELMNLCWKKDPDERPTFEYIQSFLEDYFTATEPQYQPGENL", "sequence of UniProt Q99755 (whole entry, looked up)": "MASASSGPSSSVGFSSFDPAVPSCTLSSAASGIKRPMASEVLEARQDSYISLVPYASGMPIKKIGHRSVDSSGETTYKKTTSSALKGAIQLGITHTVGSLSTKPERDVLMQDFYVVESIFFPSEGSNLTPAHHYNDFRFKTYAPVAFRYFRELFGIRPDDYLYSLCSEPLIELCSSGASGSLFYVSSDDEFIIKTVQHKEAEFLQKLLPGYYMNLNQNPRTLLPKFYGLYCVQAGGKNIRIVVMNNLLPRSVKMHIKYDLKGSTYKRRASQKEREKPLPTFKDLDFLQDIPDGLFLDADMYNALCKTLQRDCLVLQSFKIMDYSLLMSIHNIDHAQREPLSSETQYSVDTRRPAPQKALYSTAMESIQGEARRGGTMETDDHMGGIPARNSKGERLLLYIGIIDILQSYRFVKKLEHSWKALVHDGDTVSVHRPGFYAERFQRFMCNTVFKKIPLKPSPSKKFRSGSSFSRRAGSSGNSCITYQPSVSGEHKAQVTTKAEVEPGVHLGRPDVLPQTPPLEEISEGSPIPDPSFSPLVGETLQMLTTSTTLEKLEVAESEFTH"}
{"SMILES": "CC(C)OCCn1c(=S)[nH]c(=O)c2[nH]ccc21", "target": "MPO", "effect on": "enzyme activity", "concentration": "5 µM", "remaining activity [%]": 8.55}
{"SMILES": "C/C(=N\\O)c1ccc(-c2cccc(O)c2)c(Cl)c1O", "target": "SLC2A1", "effect on": "transporter uptake", "method": "radiometric", "cell line": "NCI-H1299", "concentration": "30 µM", "remaining activity [%]": 16}
{"SMILES": "CNc1ncc2c(/C=C/C(=O)N3CCC(OC)CC3)nn(Cc3cccc(C(F)(F)F)c3)c2n1", "target": "YES1 (Homo sapiens, UniProt P07947)", "effect on": "enzyme activity", "method": "radiometric", "concentration": "1 µM", "remaining activity [%]": 85}
{"SMILES": "CC[C@H](C)[C@H](NC(=O)[C@H](CCC(N)=O)NC(=O)[C@@H](NC(=O)[C@H](CCSC)NC(=O)[C@H](CCCCN)NC(=O)[C@H](CO)NC(=O)[C@@H](NC(=O)[C@H](CCSC)NC(=O)[C@H](CC(C)C)NC(=O)[C@H](CC(N)=O)NC(=O)[C@@H](NC(=O)[C@@H](NC(=O)[C@H](CO)NC(=O)[C@H](CC(C)C)NC(=O)[C@H](C)NC(=O)[C@H](CCCNC(=N)N)NC(=O)[C@H](CCC(=O)O)NC(=O)[C@H](Cc1ccc(O)cc1)NC(=O)[C@H](Cc1ccccc1)NC(=O)[C@H](C)NC(=O)[C@H](CC(N)=O)NC(=O)[C@@H](N)CCCCN)[C@@H](C)CC)[C@@H](C)CC)[C@@H](C)O)C(C)C)C(=O)N[C@@H](CC(N)=O)C(=O)N[C@H](C(=O)O)C(C)C", "target": "MAPK3", "effect on": "enzyme activity", "method": "radiometric", "concentration": "1 µM", "time": "20 min", "remaining activity [%]": 101}
{"SMILES": "COc1cc(-c2cncc3c2CN(C)Cc2cc(N4CCNCC4)ccc2-3)cc(OC)c1OC", "target": "PIP5K1A (Homo sapiens, UniProt Q99755)", "effect on": "enzyme activity", "concentration": "1 µM", "remaining activity [%]": 109}
{"SMILES": "Cc1cc(NC(=O)Nc2ccc(F)cc2)cc2sc(NC(=O)c3ccccc3)nc12", "target": "RET", "effect on": "enzyme activity", "method": "radiometric", "concentration": "10 µM", "remaining activity [%]": 78.8}
{"SMILES": "COc1ccc(Cl)cc1-c1cc(=O)[nH]c(=S)n1CC(N)=O", "target": "MPO", "effect on": "enzyme activity", "concentration": "2.5 µM", "remaining activity [%]": 22.9}
{"SMILES": "CCc1cccc(NC(=O)c2cc(-c3ccc(OC)c(S(N)(=O)=O)c3)[nH]n2)c1", "target": "RET", "effect on": "enzyme activity", "method": "radiometric", "concentration": "0.1 µM", "remaining activity [%]": 120}
{"SMILES": "C/C(=N\\O)c1ccc(-c2ccc(C(F)(F)F)cc2)c(Cl)c1O", "target": "SLC2A1", "effect on": "transporter uptake", "method": "radiometric", "cell line": "NCI-H1299", "concentration": "30 µM", "remaining activity [%]": 100}
{"SMILES": "CC[C@H](C)[C@H](NC(=O)[C@H](CCC(N)=O)NC(=O)[C@H](CC(C)C)NC(=O)[C@H](CCSC)NC(=O)[C@H](CCCCN)NC(=O)[C@H](CO)NC(=O)[C@H](CO)NC(=O)[C@H](CCSC)NC(=O)[C@H](CC(C)C)NC(=O)[C@H](CC(N)=O)NC(=O)[C@@H](NC(=O)[C@@H](NC(=O)[C@H](CO)NC(=O)[C@H](CC(C)C)NC(=O)[C@H](CS)NC(=O)[C@H](CCCNC(=N)N)NC(=O)[C@H](CC(=O)O)NC(=O)[C@H](Cc1c[nH]c2ccccc12)NC(=O)[C@H](Cc1ccccc1)NC(=O)[C@H](C)NC(=O)[C@H](CCC(=O)O)NC(=O)[C@@H](N)CCCCN)C(C)C)[C@@H](C)CC)C(=O)N[C@@H](CC(N)=O)C(=O)N[C@@H](C)C(=O)O", "target": "MAPK3", "effect on": "enzyme activity", "method": "radiometric", "concentration": "250 µM", "time": "20 min", "remaining activity [%]": 89}
{"SMILES": "O=C(Nc1ccc(NC(=O)c2ccco2)cc1C(F)(F)F)Nc1ccc(NC(=O)c2ccco2)cc1C(F)(F)F", "target": "RET", "effect on": "enzyme activity", "method": "radiometric", "concentration": "10 µM", "remaining activity [%]": 103}
{"SMILES": "CN1CCc2cc(Nc3ncc(C4CC4)c(NCCCNC(=O)C4CCC4)n3)ccc2C1", "target": "AAK1", "effect on": "enzyme activity", "method": "radiometric", "concentration": "1 µM", "remaining activity [%]": 4}
{"SMILES": "NC/C(=C\\F)COc1cccc(Cn2c(=S)[nH]c(=O)c3[nH]cnc32)c1", "target": "Thyroid peroxidase (Homo sapiens, UniProt P07202)", "effect on": "enzyme activity", "concentration": "1.875 µM", "remaining activity [%]": 68.1}
{"SMILES": "CCCOc1ccc(OC)c(F)c1C(=O)c1ccc(C(=O)N[C@@H]2CNC[C@H]2NC(=O)c2ccc3[nH]ncc3c2)cc1", "target": "Rps6ka1 (Rattus norvegicus, UniProt Q63531)", "effect on": "enzyme activity", "concentration": "10 µM", "remaining activity [%]": -3}
{"SMILES": "Cc1ccc(NC(=O)Nc2ccc(Nc3cc(-n4ccnc4)nc(C)n3)cc2)c(C)c1", "target": "RET", "effect on": "enzyme activity", "method": "radiometric", "concentration": "0.1 µM", "remaining activity [%]": 95.5}
{"SMILES": "N=C(N)c1ccc(-c2ccc(-c3ccc(C(=N)N)nc3)o2)cc1", "target": "PRMT5 (Homo sapiens, UniProt O14744)", "effect on": "enzyme activity", "method": "radiometric", "concentration": "20 µM", "remaining activity [%]": 83.6}
{"SMILES": "O=C(NCc1cccnc1-n1cnc2ccccc21)c1ccc2[nH]c(=O)[nH]c2c1", "target": "RET", "effect on": "enzyme activity", "method": "radiometric", "concentration": "0.1 µM", "remaining activity [%]": 102}
{"SMILES": "NS(=O)(=O)c1ccc(CNc2nc(Nc3cccc(CN4CCOCC4)c3)ncc2C2CC2)cc1", "target": "AAK1", "effect on": "enzyme activity", "method": "radiometric", "concentration": "1 µM", "remaining activity [%]": 70}
{"SMILES": "Nc1nc(SCC(=O)Nc2ccc3c(c2)OCO3)[nH]c(=O)c1NC(=O)c1ccc(F)c(F)c1", "target": "RET", "effect on": "enzyme activity", "method": "radiometric", "concentration": "10 µM", "remaining activity [%]": 28.1}
{"SMILES": "Cc1cc([C@@H](C)Nc2ccccc2C(=O)O)c2nc(N3CCC(F)(F)CC3)c(C#N)c(=O)n2c1", "target": "PI4KB (Homo sapiens, UniProt Q9UBF8)", "effect on": "enzyme activity", "method": "ADP detection", "concentration": "10 µM", "remaining activity [%]": 98}
{"SMILES": "NC1=Nc2nc3ccccc3n2C(c2c[nH]nc2-c2cccc(O)c2)N1 (stereo not shown)", "target": "RET", "effect on": "enzyme activity", "method": "radiometric", "concentration": "10 µM", "remaining activity [%]": 99.1}
{"SMILES": "COc1ccc(-c2ccc(/C(C)=N/O)c(O)c2Cl)cc1Cl", "target": "SLC2A1", "effect on": "transporter uptake", "method": "radiometric", "cell line": "NCI-H1299", "concentration": "30 µM", "remaining activity [%]": 79}
{"note": "Repeated from above:"}
{"SMILES": "COc1cc(-c2cncc3c2CN(C)Cc2cc(N4CCNCC4)ccc2-3)cc(OC)c1OC", "target": "PIP5K1A (Homo sapiens, UniProt Q99755)", "effect on": "enzyme activity", "concentration": "1 µM", "remaining activity [%]": 109}
{"SMILES": "Cc1cc(NC(=O)Nc2ccc(F)cc2)cc2sc(NC(=O)c3ccccc3)nc12", "target": "RET", "effect on": "enzyme activity", "method": "radiometric", "concentration": "10 µM", "remaining activity [%]": 78.8}
{"SMILES": "COc1ccc(Cl)cc1-c1cc(=O)[nH]c(=S)n1CC(N)=O", "target": "MPO", "effect on": "enzyme activity", "concentration": "2.5 µM", "remaining activity [%]": 22.9}
